Measured values from different studies.
Each numbered part is a random draw from the data of one study; scales do not carry over between parts. Positions count from the first letter of the parent shown.

Series 1
Target: CCNB3, cyclin fold, Cln2 fusion (human)
Technique: yeast growth competition, sequencing
Medium: yeast
Notes: weak parent motif
Relative to: not given
Direction: higher = stronger binding
Quantity: normalised enrichment score
Parent: MICAL3 docking peptide (human); LQLRRQLSFSEDS; partner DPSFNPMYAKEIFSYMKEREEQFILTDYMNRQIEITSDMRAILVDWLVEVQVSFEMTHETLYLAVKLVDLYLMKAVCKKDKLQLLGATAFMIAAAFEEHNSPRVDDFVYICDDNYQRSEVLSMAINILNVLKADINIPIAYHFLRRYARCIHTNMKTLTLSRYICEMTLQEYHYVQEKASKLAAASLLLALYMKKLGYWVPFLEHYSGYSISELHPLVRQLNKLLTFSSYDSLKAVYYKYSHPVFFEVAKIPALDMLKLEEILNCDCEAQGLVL
LQLRRQLAFSEDS [S8A]: -0.121
LQLRRQGSFSEDS [L7G]: 0.0406
LQLIRQLSFSEDS [R4I]: 0.111
LQLRRLLSFSEDS [Q6L]: 0.424
LQLRFQLSFSEDS [R5F]: -0.00118
LQLRRQLSFSCDS [E11C]: 0.25
LQLRRQLSFCEDS [S10C]: 0.181
LQLRRMLSFSEDS [Q6M]: 0.265
LQLRDQLSFSEDS [R5D]: 0.0434
LQLRRQLSFSLDS [E11L]: 0.569

Series 2
Target: Histone acetyltransferase KAT6A, winged helix 1, GST fusion (KAT6A, Homo sapiens, UniProt Q92794, residues 1-85)
Technique: protein binding microarray
Form: double-stranded DNA, one strand shown
Medium: in vitro
Tested at: not given
Notes: 8-mer, flanks averaged, mean of 2 arrays, mostly near background
Relative to: not given
Direction: higher = stronger binding
Quantity: E-score
Construct (chain): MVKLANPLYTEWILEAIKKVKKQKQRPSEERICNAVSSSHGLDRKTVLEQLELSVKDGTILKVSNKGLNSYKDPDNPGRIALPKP
GACTCGTA: -0.0874
GAAATTAC: -0.0664
AAATCGAT: -0.211
CACAGGAG: -0.111
ACCTGCCT: -0.163
CACCGGTG: 0.0972
CCACTGGC: -0.199
ACCCCGAA: 0.071
ACGTTGAT: -0.148
ATCCTCGG: -0.0262
AGTGTTTC: -0.00339
ATCAACTG: -0.199
ATCCGGGG: 0.101
CCACAGCG: 0.0954

Series 3
Target: Max dimerization protein 1, bHLH-zipper, MAX partner unstated (MXD1, Homo sapiens, UniProt Q05195, residues 56-136)
Technique: protein-binding microarray
Form: double-stranded DNA, one strand shown
Medium: in vitro
Tested at: not given
Notes: k-mer, scored over probes, only values ≥0.25
Direction: higher = stronger binding
Quantity: E-score
Construct (chain): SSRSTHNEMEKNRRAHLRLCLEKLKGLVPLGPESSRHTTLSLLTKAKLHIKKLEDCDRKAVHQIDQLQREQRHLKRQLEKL
ATGCGTTC: 0.292
ATGCACGC: 0.348
GACACGAC: 0.296
CATGGCTC: 0.269
ACGTGAGA: 0.343
AGAACGTG: 0.336
CAGCACGA: 0.275
GCCATGCA: 0.287
ATACATGC: 0.294
CCCGCCTC: 0.331
GGGGCGAA: 0.255
AACCAACG: 0.254
CGCGTGGC: 0.428
AGGCCATG: 0.271
CCCACTAC: 0.279
ATGCGCTC: 0.278
CCACCTGG: 0.35

Mixed results
PhoQ, residues 284 288 289 292 302 303 SMYGEC  fold induction (PhoP, residues 12 14 15 18 19 QYFSL (Escherichia coli, UniProt P23836); Sort-seq, measured: YFP reporter; E. coli; PhoQ-PhoP variant library, added: 10 µM Mg2+; relative to: high Mg2+ state, higher = stronger signaling): 9.97

Some of these lines once more (series 3):
AGAACGTG: 0.336
CAGCACGA: 0.275
GACACGAC: 0.296
CCCGCCTC: 0.331
